Results from different studies.
A part holds a random share of what one study measured.

Sample 1 — method: RNA Bind-n-Seq; form: RNA; sample: in vitro; concentration: 15 pmol; setting: 4-mer, random 30-nt RNA, single round; with: 3 µM DMDA-PatA, 2 mM AMP-PNP; relative to: input library; direction: higher = stronger binding
Target: Eukaryotic initiation factor 4A-I (EIF4A1, Homo sapiens, UniProt P60842, residues 1-406, full length assumed)
Chain of UniProt P60842 (whole entry, looked up): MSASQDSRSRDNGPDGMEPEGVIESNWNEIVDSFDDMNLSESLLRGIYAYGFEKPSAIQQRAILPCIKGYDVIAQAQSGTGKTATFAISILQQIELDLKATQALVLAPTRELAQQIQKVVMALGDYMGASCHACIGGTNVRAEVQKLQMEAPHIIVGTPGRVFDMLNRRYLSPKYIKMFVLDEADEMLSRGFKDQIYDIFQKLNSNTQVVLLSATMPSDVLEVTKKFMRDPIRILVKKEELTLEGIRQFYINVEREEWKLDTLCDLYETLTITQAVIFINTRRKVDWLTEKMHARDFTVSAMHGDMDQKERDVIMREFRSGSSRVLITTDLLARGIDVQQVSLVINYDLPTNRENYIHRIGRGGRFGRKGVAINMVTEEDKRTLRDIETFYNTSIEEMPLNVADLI
`CCUG` has a 4-mer enrichment of 0.567 fold.
For `GAUC`, the 4-mer enrichment was 1.52 fold.
`GGUA` gave a 4-mer enrichment of 1.52 fold.
For `AUAU`, the 4-mer enrichment was 1.15 fold.
The 4-mer enrichment of `GACA` is reported as 0.776 fold.
`ACCC` gave a 4-mer enrichment of 0.407 fold.

Sample 2 — effect on: enzyme activity; mode: inhibitor; concentration: 20 µM
Target: Replicase polyprotein 1ab, polymerase (rep, Severe acute respiratory syndrome coronavirus 2, UniProt P0DTD1)
With `CN[C@H](CC(C)C)C(=O)N[C@H]1C(=O)N[C@@H](CC(N)=O)C(=O)N[C@H]2C(=O)N[C@H]3C(=O)N[C@H](C(=O)N[C@H](C(=O)O)c4cc(O)cc(O)c4-c4cc3ccc4O)[C@H](O)c3ccc(c(Cl)c3)Oc3cc2cc(c3O[C@@H]2O[C@H](CO)[C@@H](O)[C@H](O)[C@H]2O[C@H]2C[C@](C)(N)[C@H](O)[C@H](C)O2)Oc2ccc(cc2Cl)[C@H]1O` the inhibition was -3.9%.
With `N=C1N[C@H]2[C@H](CS[C@H]2CCCCC(=O)O)N1` the inhibition was 4.75%.
`CCc1cccc2c3c([nH]c12)C(CC)(CC(=O)O)OCC3` (stereo not drawn) gave an inhibition of 0.97%.
The inhibition of `O=C(Nc1ccc2c(O)cc(S(=O)(=O)O)cc2c1)Nc1ccc2c(O)cc(S(=O)(=O)O)cc2c1` is reported as 90.5%.
With `Nc1ncnc2c1c(-c1cnc3[nH]ccc3c1)nn2C1CCCC1` the inhibition was 2.38%.
`COC(=O)c1sccc1S(=O)(=O)Nc1ccc(Nc2ccccc2)cc1OC` gave an inhibition of -17%.
For `C[C@@H]1C[C@H]2[C@@H]3CCC4=CC(=O)C=C[C@]4(C)[C@@]3(Cl)[C@@H](O)C[C@]2(C)[C@@]1(OC(=O)c1ccco1)C(=O)CCl`, the inhibition was 0.84%.
With `CCC[C@@H]1CC(=O)N([C@@H](CC)C(N)=O)C1` the inhibition was -10.5%.
For `CC(C)(C)C(=O)OCC(=O)[C@H]1CC[C@H]2[C@@H]3CCC4=CC(=O)CC[C@]4(C)[C@H]3CC[C@]12C`, the inhibition was -1.3%.
`COc1cc2c(cc1OC)[C@@]13CCN4CC5=CCO[C@H]6CC(=O)N2[C@H]1[C@H]6[C@H]5C[C@H]43` has an inhibition of 3.51%.
With `Cc1ccccc1C(=O)Nc1ccc(C(=O)N2CCCC(O)c3cc(Cl)ccc32)c(C)c1` (stereo not drawn) the inhibition was 0.7%.
For `CN(CCOc1ccc(NS(C)(=O)=O)cc1)CCc1ccc(NS(C)(=O)=O)cc1`, the inhibition was 1.09%.
`NC(=O)CN1C=CCC(C(N)=O)=C1` has an inhibition of 4.94%.
`CN(Cc1cccc(-c2ccccc2)c1)C(=O)Oc1ccc(-c2ccc(C(N)=O)cc2)cc1` gave an inhibition of 3.61%.
The inhibition of `CC(NC(C)(C)C)C(=O)c1cccc(Cl)c1` (stereo not drawn) is reported as 3.52%.
The inhibition of `O=c1[nH]cnc2c([C@@H]3N[C@H](CO)[C@@H](O)[C@H]3O)c[nH]c12` is reported as -5.09%.
The inhibition of `CCc1ccc2c(-c3cccc(Cl)c3)nc(=O)n(CC)c2n1` is reported as -2.47%.
With `CN(C)CCCn1cc(C2=C(c3c[nH]c4ccccc34)C(=O)NC2=O)c2ccccc21` the inhibition was 4.27%.
`CNC(=O)c1cc(Oc2ccc(NC(=O)Nc3ccc(Cl)c(C(F)(F)F)c3)c(F)c2)ccn1` gave an inhibition of -1.83%.
The inhibition of `CCCC(=O)OCOC(=O)C1=C(C)NC(C)=C(C(=O)OC)C1c1cccc(Cl)c1Cl` (stereo not drawn) is reported as 0.77%.
The inhibition of `C=C1CC[C@H](O)C/C1=C/C=C1\CCC[C@]2(C)[C@@H]([C@H](C)/C=C/[C@H](C)C(C)C)CC[C@@H]12` is reported as 15.6%.
For `OCCNCCCOc1cccc(Cl)c1Cl`, the inhibition was 25.6%.
`NCC(=O)N1C[C@H](NC(=O)c2ccccc2)C[C@H]1C(=O)O` has an inhibition of 0.3%.
For `OC(CN1CCC(Cc2ccc(F)cc2)CC1)c1ccc(Cl)cc1` (stereo not drawn), the inhibition was -4.26%.
The inhibition of `COC(=O)[C@H](NC(=O)c1cc(-c2ccccc2)nc2ccccc12)c1ccccc1` is reported as 2.58%.

Sample 3 — effect on: enzyme activity; mode: inhibitor; concentration: 20 µM; setting: primary screen
Target: Replicase polyprotein 1ab, main protease (rep, Severe acute respiratory syndrome coronavirus 2, UniProt P0DTD1)
The inhibition of `CCO/N=C(/C(=O)N[C@@H]1C(=O)N2C(C(=O)O)=C(Sc3nc(-c4cc[n+](C)cc4)cs3)CS[C@H]12)c1nsc(NP(=O)(O)O)n1` is reported as 26.9%.
For `CSc1ccc(C(=O)c2[nH]c(=O)[nH]c2C)cc1`, the inhibition was 84.4%.
`COc1cc(Br)c(Nc2nc(-c3c(C)nc4ncccn34)cs2)c(Br)c1` gave an inhibition of 28.3%.

Sample 4 — cell line: HEK-293T/ACE2; concentration: concentration not given; time: 16 (unit not given); relative to: vehicle
`CCCCC(=O)O[C@]1(C(=O)CO)CC[C@H]2[C@@H]3CCC4=CC(=O)CC[C@]4(C)[C@H]3[C@@H](O)C[C@@]21C` has a viability of 102%.
`CCCCCCC(=O)O[C@H]1CC[C@H]2[C@@H]3CCC4=CC(=O)CC[C@]4(C)[C@H]3CC[C@]12C` has a viability of 102%.
`CCN(CC)CCOC(=O)c1ccc(N)cc1` gave a viability of 86.8%.
The viability of `CCC(=O)O[C@H]1CC[C@H]2[C@@H]3CCC4=CC(=O)CC[C@]4(C)[C@H]3CC[C@]12C` is reported as 98.3%.

Sample 5 — method: protein binding microarray; form: double-stranded DNA, one strand shown; sample: in vitro; concentration: not given; relative to: not given; direction: higher = stronger binding
Target: Histone acetyltransferase KAT6A, winged helix 1, GST fusion (KAT6A, Homo sapiens, UniProt Q92794, residues 1-85)
Setting: 8-mer, flanks averaged, mean of 2 arrays, mostly near background
Residues (chain): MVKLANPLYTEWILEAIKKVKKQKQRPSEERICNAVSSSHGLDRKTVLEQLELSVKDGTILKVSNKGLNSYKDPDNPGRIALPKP
`ATGTAGGG` has an E-score of -0.0664.
With `CTTGGCCC` the E-score was -0.103.
The E-score of `CGATATGA` is reported as 0.0371.
The E-score of `GGGCGGAC` is reported as 0.298.
`CTCCAAAC` gave an E-score of -0.08.
For `CGGCTATC`, the E-score was 0.352.
`CGACACTA` has an E-score of 0.00215.
The E-score of `ACTCACCG` is reported as 0.0943.

Sample 6 — method: RNA Bind-n-Seq; form: RNA; sample: in vitro; concentration: 200 nM; setting: whole 134-nt RNA, ends assumed; with: 150 mM KCl; relative to: input library; direction: higher = stronger binding
Target: Fragile X messenger ribonucleoprotein 1, C-terminal low-complexity region (Fmr1, Mus musculus, UniProt P35922)
All sequences stand within: GGGAGUUCUACAGUCCGACGAUC … UGGAAUUCUCGGGUGUCAAGG
For `GCAGGAAGUAAAAACAAAUGGAAAUGAUUCGGAUAGUGGCAGGGGUGGGGGUUGCUAAGGAAAGGGUGGGAUGGGAGUGGGUAAAGAGUU`, the log2 enrichment was 0.515.
`CCUGUGCUACACAUCGUAUGUACCGAAUCGGGGAAAAAGGGGAAAAAGGGGUUUUUGGGGAAAGUAUUAUGUUACGCCGUUCGGAUCUGC` has a log2 enrichment of 0.278.
`UGGGAGGUGGAUUUUGUUUAUUUUUUUAGCUCAUUUCCAGGGGUUGGAAUUUUUUUUUAAUAUGUGUCAUGAAUAAAGUUGUUUUUGAAA` has a log2 enrichment of -0.0441.
`ACCAUGCAGGUGGGCAUCUUUGGGAAGUGGGGCAAGGGGGGGAUAGGGAGGGGGGUAACACUAAAGGAACAGGUGGUCCCAGGUCGUUUC` has a log2 enrichment of 0.777.
`UGGGAGGUGGAUUUUGUUUAUUUUUUUAGCUCAUUUCCAGGGGUGGGAAUUUUUUUUUAAUAGGUGUCAUGAAUAAAGUUGUUUUUGAAA` gave a log2 enrichment of 0.107.
For `UGGCCCUGGUGGCAUGCGGGGAGGAAGAGGUGGCCUCAUGGAUCGGGGUGGUCCCGGUGGAAUGUUCAGAGGUGGCCGUGGUGGAGACAG`, the log2 enrichment was -0.226.
The log2 enrichment of `UUUUGAGGAAAGGAUGAAGGAGCUCAGAGAAGAGGUAAGGGUCUCCUAUCCUUCCCCUCUCCCCCAGAUUUGAGUUUUAUGUUAUGAAUC` is reported as -0.531.
The log2 enrichment of `CCUGUGCUACACAUCGUAUGUACCGAAUCAAACCCCCCCAAAUUUUUAAACCCCCCCAAAAAAGUAUUAUGUUACGCCGUUCGGAUCUGC` is reported as -0.85.

A few entries again (sample 6):
`CCUGUGCUACACAUCGUAUGUACCGAAUCGGGGAAAAAGGGGAAAAAGGGGUUUUUGGGGAAAGUAUUAUGUUACGCCGUUCGGAUCUGC` has a log2 enrichment of 0.278.
`UGGGAGGUGGAUUUUGUUUAUUUUUUUAGCUCAUUUCCAGGGGUUGGAAUUUUUUUUUAAUAUGUGUCAUGAAUAAAGUUGUUUUUGAAA` has a log2 enrichment of -0.0441.
`ACCAUGCAGGUGGGCAUCUUUGGGAAGUGGGGCAAGGGGGGGAUAGGGAGGGGGGUAACACUAAAGGAACAGGUGGUCCCAGGUCGUUUC` has a log2 enrichment of 0.777.
`UGGGAGGUGGAUUUUGUUUAUUUUUUUAGCUCAUUUCCAGGGGUGGGAAUUUUUUUUUAAUAGGUGUCAUGAAUAAAGUUGUUUUUGAAA` gave a log2 enrichment of 0.107.
For `UGGCCCUGGUGGCAUGCGGGGAGGAAGAGGUGGCCUCAUGGAUCGGGGUGGUCCCGGUGGAAUGUUCAGAGGUGGCCGUGGUGGAGACAG`, the log2 enrichment was -0.226.
The log2 enrichment of `UUUUGAGGAAAGGAUGAAGGAGCUCAGAGAAGAGGUAAGGGUCUCCUAUCCUUCCCCUCUCCCCCAGAUUUGAGUUUUAUGUUAUGAAUC` is reported as -0.531.
The log2 enrichment of `CCUGUGCUACACAUCGUAUGUACCGAAUCAAACCCCCCCAAAUUUUUAAACCCCCCCAAAAAAGUAUUAUGUUACGCCGUUCGGAUCUGC` is reported as -0.85.
